{"data": "Experimental data from different studies", "note": "A part holds a random share of what one study measured.", "sequence of UniProt Q8N6M0 (whole entry, looked up)": "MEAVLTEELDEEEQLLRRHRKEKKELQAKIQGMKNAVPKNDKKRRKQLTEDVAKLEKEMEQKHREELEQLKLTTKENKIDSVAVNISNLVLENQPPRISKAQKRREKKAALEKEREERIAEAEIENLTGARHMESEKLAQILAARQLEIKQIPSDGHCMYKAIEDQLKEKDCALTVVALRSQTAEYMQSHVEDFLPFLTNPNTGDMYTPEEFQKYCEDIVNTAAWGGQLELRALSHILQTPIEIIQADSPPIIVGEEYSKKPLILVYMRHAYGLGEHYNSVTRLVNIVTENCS", "sequence of UniProt P15374 (whole entry, looked up)": "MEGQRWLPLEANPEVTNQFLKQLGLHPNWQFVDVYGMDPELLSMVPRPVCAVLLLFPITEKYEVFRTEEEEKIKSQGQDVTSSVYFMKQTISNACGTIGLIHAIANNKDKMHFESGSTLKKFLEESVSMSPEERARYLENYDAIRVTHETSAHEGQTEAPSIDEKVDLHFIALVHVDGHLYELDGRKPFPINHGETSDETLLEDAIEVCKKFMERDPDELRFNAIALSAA", "sequence of UniProt P52333 (whole entry, looked up)": "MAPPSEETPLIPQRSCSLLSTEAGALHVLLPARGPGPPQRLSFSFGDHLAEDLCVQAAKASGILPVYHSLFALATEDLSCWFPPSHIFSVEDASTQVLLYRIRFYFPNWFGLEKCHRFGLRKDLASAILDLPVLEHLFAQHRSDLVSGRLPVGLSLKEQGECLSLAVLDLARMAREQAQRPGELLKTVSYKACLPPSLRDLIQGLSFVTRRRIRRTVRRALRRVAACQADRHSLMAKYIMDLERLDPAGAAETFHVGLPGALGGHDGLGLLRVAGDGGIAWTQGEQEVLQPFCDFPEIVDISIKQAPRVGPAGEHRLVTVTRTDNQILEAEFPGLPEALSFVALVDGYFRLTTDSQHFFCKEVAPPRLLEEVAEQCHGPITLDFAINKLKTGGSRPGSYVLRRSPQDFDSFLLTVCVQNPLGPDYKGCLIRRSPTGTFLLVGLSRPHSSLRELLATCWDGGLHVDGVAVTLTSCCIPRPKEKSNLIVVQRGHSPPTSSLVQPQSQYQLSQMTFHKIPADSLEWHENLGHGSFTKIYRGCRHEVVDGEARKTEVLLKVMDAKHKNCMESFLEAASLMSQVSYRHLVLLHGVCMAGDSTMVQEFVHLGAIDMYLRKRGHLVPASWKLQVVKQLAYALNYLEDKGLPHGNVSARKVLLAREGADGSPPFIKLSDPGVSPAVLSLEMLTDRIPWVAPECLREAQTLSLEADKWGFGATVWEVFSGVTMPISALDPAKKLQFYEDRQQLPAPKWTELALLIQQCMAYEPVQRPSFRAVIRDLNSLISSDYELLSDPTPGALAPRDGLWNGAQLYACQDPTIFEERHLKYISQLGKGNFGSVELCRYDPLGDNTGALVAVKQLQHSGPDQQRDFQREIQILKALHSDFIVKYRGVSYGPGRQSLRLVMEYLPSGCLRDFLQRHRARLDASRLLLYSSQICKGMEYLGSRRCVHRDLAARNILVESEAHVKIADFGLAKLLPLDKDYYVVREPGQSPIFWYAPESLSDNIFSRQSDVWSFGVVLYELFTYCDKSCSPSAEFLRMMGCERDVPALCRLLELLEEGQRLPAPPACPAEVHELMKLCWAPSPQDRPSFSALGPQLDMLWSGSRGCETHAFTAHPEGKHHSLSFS", "sequence of UniProt Q93009 (whole entry, looked up)": "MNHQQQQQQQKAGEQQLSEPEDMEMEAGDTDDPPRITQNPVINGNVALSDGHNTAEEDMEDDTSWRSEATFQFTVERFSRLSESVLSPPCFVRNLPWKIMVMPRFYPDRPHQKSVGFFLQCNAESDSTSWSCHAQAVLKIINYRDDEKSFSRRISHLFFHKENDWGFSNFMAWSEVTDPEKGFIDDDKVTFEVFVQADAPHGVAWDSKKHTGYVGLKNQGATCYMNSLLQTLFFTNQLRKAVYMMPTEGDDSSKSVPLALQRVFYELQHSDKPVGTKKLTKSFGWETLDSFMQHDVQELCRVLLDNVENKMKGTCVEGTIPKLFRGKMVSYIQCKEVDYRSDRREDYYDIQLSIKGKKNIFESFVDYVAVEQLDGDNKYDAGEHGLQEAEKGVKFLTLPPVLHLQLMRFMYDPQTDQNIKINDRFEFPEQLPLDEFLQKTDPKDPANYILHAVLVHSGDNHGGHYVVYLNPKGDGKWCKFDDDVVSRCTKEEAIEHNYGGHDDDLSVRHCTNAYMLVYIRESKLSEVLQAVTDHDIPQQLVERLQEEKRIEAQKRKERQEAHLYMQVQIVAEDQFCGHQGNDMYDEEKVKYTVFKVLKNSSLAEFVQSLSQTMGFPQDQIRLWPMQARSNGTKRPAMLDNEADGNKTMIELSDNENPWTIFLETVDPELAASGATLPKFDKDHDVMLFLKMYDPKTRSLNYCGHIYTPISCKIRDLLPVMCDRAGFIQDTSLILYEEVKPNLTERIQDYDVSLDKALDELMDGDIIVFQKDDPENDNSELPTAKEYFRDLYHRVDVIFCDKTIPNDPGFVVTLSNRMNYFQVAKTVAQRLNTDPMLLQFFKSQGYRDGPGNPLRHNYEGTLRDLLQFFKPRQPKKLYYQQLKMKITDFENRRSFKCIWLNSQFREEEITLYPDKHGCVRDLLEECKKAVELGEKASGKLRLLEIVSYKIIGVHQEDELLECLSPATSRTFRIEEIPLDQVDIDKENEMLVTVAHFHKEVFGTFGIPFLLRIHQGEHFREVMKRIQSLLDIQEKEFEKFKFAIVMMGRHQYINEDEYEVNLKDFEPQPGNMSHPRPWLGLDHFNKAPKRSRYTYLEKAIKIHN"}
{"data": "Set 1", "Substance": "ubiquitin aldehyde", "read-out": "enzyme activity", "USP5": "Ubiquitin carboxyl-terminal hydrolase 5 (USP5, Homo sapiens, UniProt P45974)", "TNFAIP3": "TNFAIP3 (Homo sapiens, UniProt P21580)", "sequence of UniProt P45974 (whole entry, looked up)": "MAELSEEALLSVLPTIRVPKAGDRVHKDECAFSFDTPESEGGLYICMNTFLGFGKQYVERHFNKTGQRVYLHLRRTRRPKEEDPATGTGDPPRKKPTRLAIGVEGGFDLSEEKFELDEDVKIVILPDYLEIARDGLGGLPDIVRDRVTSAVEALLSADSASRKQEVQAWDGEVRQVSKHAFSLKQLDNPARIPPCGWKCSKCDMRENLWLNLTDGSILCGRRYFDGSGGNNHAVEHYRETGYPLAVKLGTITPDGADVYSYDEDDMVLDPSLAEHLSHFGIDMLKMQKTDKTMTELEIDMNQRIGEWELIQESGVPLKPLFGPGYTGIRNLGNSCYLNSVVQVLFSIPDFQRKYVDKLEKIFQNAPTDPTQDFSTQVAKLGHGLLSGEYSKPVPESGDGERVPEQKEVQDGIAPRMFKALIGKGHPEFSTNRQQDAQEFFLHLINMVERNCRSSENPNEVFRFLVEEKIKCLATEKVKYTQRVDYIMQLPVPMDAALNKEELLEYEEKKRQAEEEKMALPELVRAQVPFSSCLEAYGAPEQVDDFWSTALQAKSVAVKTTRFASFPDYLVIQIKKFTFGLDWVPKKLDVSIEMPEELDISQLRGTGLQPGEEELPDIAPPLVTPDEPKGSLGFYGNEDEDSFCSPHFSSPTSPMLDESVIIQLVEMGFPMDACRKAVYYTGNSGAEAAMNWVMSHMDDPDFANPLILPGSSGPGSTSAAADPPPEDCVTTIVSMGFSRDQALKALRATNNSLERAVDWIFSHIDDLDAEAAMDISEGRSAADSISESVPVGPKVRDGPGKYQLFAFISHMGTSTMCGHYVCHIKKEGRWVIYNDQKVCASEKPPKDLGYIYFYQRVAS", "sequence of UniProt P21580 (whole entry, looked up)": "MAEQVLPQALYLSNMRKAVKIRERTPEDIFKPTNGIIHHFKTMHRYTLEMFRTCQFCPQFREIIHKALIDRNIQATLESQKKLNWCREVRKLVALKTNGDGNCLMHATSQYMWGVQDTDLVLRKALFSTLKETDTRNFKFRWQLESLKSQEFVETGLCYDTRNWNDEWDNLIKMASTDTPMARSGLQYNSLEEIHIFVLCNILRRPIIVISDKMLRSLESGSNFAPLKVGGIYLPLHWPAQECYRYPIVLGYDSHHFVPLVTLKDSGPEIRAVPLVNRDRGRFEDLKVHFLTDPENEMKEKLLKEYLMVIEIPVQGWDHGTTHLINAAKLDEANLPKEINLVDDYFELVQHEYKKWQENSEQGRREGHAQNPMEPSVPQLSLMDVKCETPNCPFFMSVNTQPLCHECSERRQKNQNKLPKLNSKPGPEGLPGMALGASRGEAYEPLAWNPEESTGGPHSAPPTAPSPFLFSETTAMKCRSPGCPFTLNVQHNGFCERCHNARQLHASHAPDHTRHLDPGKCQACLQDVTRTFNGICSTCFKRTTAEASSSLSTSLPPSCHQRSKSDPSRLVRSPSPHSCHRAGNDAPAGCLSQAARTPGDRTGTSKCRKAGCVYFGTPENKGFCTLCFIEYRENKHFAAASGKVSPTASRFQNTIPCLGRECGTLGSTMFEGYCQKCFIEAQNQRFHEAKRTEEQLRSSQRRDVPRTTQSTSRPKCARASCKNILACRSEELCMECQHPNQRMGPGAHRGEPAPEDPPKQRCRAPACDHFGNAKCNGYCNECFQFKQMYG"}
{"target": "USP5", "tested at": "0.01 µM", "inhibition": "2%"}
{"target": "Ubiquitin carboxyl-terminal hydrolase isozyme L3 (UCHL3, Homo sapiens, UniProt P15374)", "tested at": "0.01 µM", "inhibition": "89%"}
{"target": "TNFAIP3", "tested at": "0.01 µM", "inhibition": "54%"}
{"target": "TNFAIP3", "tested at": "0.001 µM", "inhibition": "11%"}
{"target": "Deubiquitinase OTUD6B (OTUD6B, Homo sapiens, UniProt Q8N6M0)", "tested at": "1 µM", "inhibition": "100%"}
{"target": "Ubiquitin carboxyl-terminal hydrolase 7 (USP7, Homo sapiens, UniProt Q93009)", "tested at": "0.1 µM", "inhibition": "97%"}
{"target": "Ubiquitin carboxyl-terminal hydrolase 10 (USP10, Homo sapiens, UniProt Q14694)", "tested at": "0.1 µM", "inhibition": "43%"}
{"target": "USP5", "tested at": "1 µM", "inhibition": "97%"}
{"data": "Set 2", "target": "UBE2D2 UBC core domain (UniProt P62837)", "method": "yeast two-hybrid", "sample": "yeast", "setting": "mostly zero background", "relative to": "not given", "reading": "higher = stronger interaction", "B1": "TRIM8 RING domain (UniProt Q9BZR9); chain WKNCFEEELICPICLHVFVEPVQLPCKHNFCRGCIGEAWAKDSGLVRCPECNQAYNQKPGLE", "B2": "TRIM69 RING domain (UniProt Q86WT6); chain VIQDITMELHCPLCNDWFRDPLMLSCGHNFCEACIQDFWRLQAKETFCPECKMLCQYNNCTF", "B3": "CUL9 RING domain (UniProt Q8IWT3); chain AQAVPVRPDHCPVCVSPLGCDDDLPSLCCMHYCCKSCWNEYLTTRIEQNLVLNCTCPIADCPAQPTGAFIR", "B4": "TRIM72 RING domain (UniProt Q6ZMU5); chain APGLLHQELSCPLCLQLFDAPVTAECGHSFCRACLGRVAGEPAADGTVLCPCCQAPTRPQALST", "B5": "IRF2BPL RING domain (UniProt Q9H1B7); chain SPMANSGPLCCTICHERLEDTHFVQCPSVPSHKFCFPCSRESIKAQGATGEVYCPSGEKCPLVGSNVP", "B6": "RNF170 RING domain (UniProt Q96K19); chain TRQQFYTDMYCPICLHQASFPVETNCGHLFCGACIIAYWRYGSWLGAISCPICRQTVTLLLTVF", "sequence of UniProt P62837 (whole entry, looked up)": "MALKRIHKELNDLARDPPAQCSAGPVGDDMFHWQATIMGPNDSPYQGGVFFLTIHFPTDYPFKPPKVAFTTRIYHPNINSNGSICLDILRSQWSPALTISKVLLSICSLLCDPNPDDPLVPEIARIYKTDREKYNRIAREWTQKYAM"}
{"Sequence": "B1 (TRIM8 RING domain)", "lacZ reporter activity": 0}
{"Sequence": "B2 (TRIM69 RING domain)", "lacZ reporter activity": 0}
{"Sequence": "B3 (CUL9 RING domain)", "lacZ reporter activity": 0}
{"Sequence": "EDEVSDNSAECVVCLSDVRDTLILPCRHLCLCNTCADTLRYQANNCPICRLPFRALLQIR (RNF157 RING domain (UniProt Q96PX1))", "lacZ reporter activity": 0}
{"Sequence": "QHHELTSLFECPVCFDYVLPPILQCQAGHLVCNQCRQKLSCCPTCRGALTPSIRNL (SIAH2 RING domain (UniProt O43255))", "lacZ reporter activity": 0}
{"Sequence": "B4 (TRIM72 RING domain)", "lacZ reporter activity": 0}
{"Sequence": "B5 (IRF2BPL RING domain)", "lacZ reporter activity": 0}
{"Sequence": "B6 (RNF170 RING domain)", "lacZ reporter activity": 0}
{"data": "Set 3", "target": "HLA class I histocompatibility antigen, A alpha chain, allele A*26:03 (Homo sapiens, UniProt P04439)", "read-out": "peptide-MHC binding", "molecule type": "peptide", "tested at": "concentration not given"}
{"Sequence": "CFMYSDFHF", "binding": "inactive"}
{"Sequence": "LYNTVAVLY", "binding": "inactive"}
{"Sequence": "KNYPASLHK", "binding": "inactive"}
{"Sequence": "EIRHRSGIQ", "binding": "inactive"}
{"Sequence": "LLLLISLVY", "binding": "inactive"}
{"Sequence": "VTFFCVMTY", "binding": "inactive"}
{"Sequence": "FQYEHEQTF", "binding": "inactive"}
{"Sequence": "DPKKTGGPI", "binding": "inactive"}
{"data": "Single results of other studies"}
{"Compound": "O=C1NC(=O)c2c1c1c3ccccc3n3c1c1c2c2ccccc2n1[C@H]1CC[C@@H]3O1", "target": "Tyrosine-protein kinase JAK3 (JAK3, Homo sapiens, UniProt P52333)", "read-out": "enzyme activity", "action": "inhibitor", "tested at": "0.5 µM", "relative to": "control", "measurement": "remaining activity", "value": "1.87%"}
{"note": "A few entries again (set 2):"}
{"Sequence": "B6 (RNF170 RING domain)", "lacZ reporter activity": 0}
{"Sequence": "B1 (TRIM8 RING domain)", "lacZ reporter activity": 0}
{"Sequence": "EDEVSDNSAECVVCLSDVRDTLILPCRHLCLCNTCADTLRYQANNCPICRLPFRALLQIR (RNF157 RING domain (UniProt Q96PX1))", "lacZ reporter activity": 0}
